Assay results collected from several papers.
Protocols differ between the studies behind these lines. Several values in a cell are separate wells, animals, samples, runs or records. ± marks the error that the study gave.

`COc1ccc(O)cc1-c1c[nH]c2ncc(-c3cncc(C(=O)N(C)C)c3)cc12`: cytotoxicity “not toxic” (non-BCR-ABL leukaemia cells; concentration not given).
The IC50 of `CNS(=O)(=O)Nc1nccc(Cc2c(C)c3ccc(Oc4ncccc4F)cc3oc2=O)c1F` is reported as over 1000 nM (Daoy; cell viability, CellTiter-Glo; 7 days).
`Fc1ccc(Nc2nc(NC3CCCCC3)c3ccccc3n2)cc1F` gave a pIC50 of 6.3 (transfected HEK293 cells; β-arrestin2 recruitment, negative allosteric modulator, BRET; 30 min pre-incubation, β1AR ECL1 chimera, added: isoproterenol 1 µM).
The reporter activity of `COC(=O)[C@@]1(C(C)C)C=C(C(=O)Nc2cccc(C(=O)Nc3ccc(Nc4nccc(-c5cccnc5)n4)c(C)c3)c2)C(=O)CC1` is reported as 0.273 (HEK293 AP1 reporter; AP1 reporter gene, inhibitor; 10 µM, 6 h, unit not given, added: PMA; reference: PMA alone).
For `Cc1ncsc1-c1ccc(C(C)NC(=O)C2CC(O)CN2C(=O)C(NC(=O)CCCCCCCCCCN2CCCC(Nc3ncc(Cl)c(Nc4ccccc4S(=O)(=O)C(C)C)n3)C2)C(C)(C)C)cc1` (stereo not drawn), “log2 fold change” read -1.78 (22Rv1; RNA-seq, measured: ZNF391 mRNA; concentration not given; reference: DMSO).
For `COc1ccc(NC(=O)c2ccc3[nH]c(-c4ccc(N(C)C)cc4)nc3c2)cn1`, “dead cell to confluence ratio” read 3.54 and 81 and 5.36 (HCEC-hTERT; IncuCyte; concentration not given, 12 h).
`COC(=O)c1cc(NC2=NC(=O)C(=Cc3ccc(C)cc3)S2)ccc1OC(C)=O` gave a metabolite level of -0.47 fold change (MCF7; GC-MS, measured: Cycloserine; 1 µM; reference: DMSO).
With `CCN(CC)CC(=O)Nc1cccc(-n2cc(-c3ccc4ccc(-c5cn(-c6cccc(NC(=O)CN(CC)CC)c6)nn5)cc4c3)nn2)c1` the fold regulation was 1.62 fold (RCC4; PCR angiogenesis array, measured: TEK; 5 x IC50, 2 h, normoxia; reference: untreated).
With `CO[C@@H]1[C@@H](OC(N)=O)[C@@H](O)[C@H](Oc2ccc3c(O)c(NC(=O)c4ccc(O)c(CC=C(C)C)c4)c(=O)oc3c2C)OC1(C)C` the colony count was 24.5 (HCT-116 BRCA2-/-; 100 µM, replicate 2).
`CN(C)CCN1CCN(c2ccc3nc(-c4ccc5nc(-c6ccc(C(F)(F)F)cc6)[nH]c5c4)[nH]c3c2)CC1` has a growth percent of 32.2% (M14; SRB; 10 µM, 48 h).
`CN1CCCNC(=O)c2cccc(c2)C(=O)NCCCN(C)CCCNc2cccc3c2C(=O)c2cccc(c2C3=O)NCCC1` — result for “log2 fold change”: -1.13 (SAS; RNA-Seq, measured: LRP8 mRNA; 1 µM, 6 h; reference: untreated cells).
With `COc1cccc(OC)c1-c1cc(C(=O)NC2(C(=O)O)C3CC4CC(C3)CC2C4)nn1-c1ccc(C(=O)N(C)CCCN(C)CCCN(C)C(=O)[C@H](CCCCNC(=O)[C@H](CC(C)C)NC(=O)C2OC2C(=O)O)NC(=O)CN2CCN(CC(=O)[O-])CCN(CC(=O)[O-])CCN(CC(=O)[O-])CC2)cc1C(C)C.[177Lu+3]` (mixture of isomers) the surface-bound fraction was 3.3 ± 0.23% (HT-29; concentration not given, 240 min; reference: added activity).
Under “number of upregulated genes”, `CN1CC[C@@H](COc2cnc(C#N)cc2-c2ccn3nc(NC(=O)C4CC4)cc3c2)C1` is recorded as 20 genes (human PBMC, CD4 memory T cells; single-cell RNA-seq; 1 µM, added: LPS; reference: LPS alone).
`CNC(NN=Cc1ccc([N+](=O)[O-])o1)=[S+][Au-][Cl]`: “cell fraction ANV+/PI+” 5 ± 0.7% (CAKI-1; annexin V/PI flow cytometry; 15 µM, 72 h).
For `[Cl-].[Cl-].[Ru+2].c1ccc(-c2ccccn2)nc1.c1ccc(-c2ccccn2)nc1.c1ccc2cc3nc4c5cccnc5c5ncccc5c4nc3cc2c1`, the TGI was 199 nM (SK-MEL-28; cell growth, SRB; red light 633 nm, normoxia).
`N#Cc1cccc(/C=C/C(=O)c2ccc(O)cc2)c1` has a mRNA level of 0.041 fold (U-87 MG; measured: HLA-DRA; concentration not given; reference: untreated).
The GI50 of `CN1CCN(Cc2ccc(C(=O)Nc3ccc4c(/C=C/c5ccccn5)n[nH]c4c3)cc2)CC1` is reported as 670 nM (Ba/F3 TEL-VEGFR3; cell growth, CCK-8).
`CCCCCCCCCCCC(=O)N[C@@H](CO)C[C@@H](O)c1cccc(CCCCCC)c1` has a hexosylceramide level of 19300 pmol/sample and 14900 pmol/sample and 17700 pmol/sample (HeLa; CERT activity, HPLC-MS/MS lipidomics, measured: hexosylceramide 24:1; 1 µM, 24 h, not cell-number normalised).
The colony survival of `COc1ccccc1-c1ccncc1C(=O)Nc1nnc(OCc2ccc(Cl)cc2)s1` is reported as 25.8% and 0% (PEO1 BRCA2-mutant ovarian cancer; 0.25 µM, added: olaparib 0.25 µM).
With `Cc1cnc(NC(=O)c2cccc([C@@H]3C[C@H]3NC3CCC3)c2)s1` the relative growth was 101% and 109% and 94.6% (SET-2; cell growth, CellTiter-Glo; 1 µM, 7 d; reference: vehicle).
For `Cn1ncc2cc(-c3cncc(Cl)c3N3CCC4(CCNC4=O)CC3)ccc21`, “log2 fold change” read -3.37 (LS174T; gene expression, microarray, measured: EDN2 mRNA; concentration not given, 24 h; reference: untreated cells).
With `CC(C)c1ccc(N(C)c2ccc3c(c2)OCC[C@H]3CNc2cnccc2C(=O)O)cc1` the IC50 was 7.34 nM (KM12; cell viability, CellTiter-Glo; 7 days).
`COc1cc(N2CCN(C(=O)CN)CC2)ccc1Nc1ncc(Cl)c(Nc2ccccc2P(C)(C)=O)n1` has a viability of 69% (NCI-H3122; CCK-8; 10 nM, 48 h).
`Cc1nc2c(F)cc(-c3nc(Nc4ccc(CNC(=O)CCCCCC(=O)NO)cc4)ncc3F)cc2n1C(C)C` gave an inhibition of 93.2% (OVCAR-5; cell growth or viability, CCK-8; 0.3 µM, 48 h).
`CN(C)c1ccc(-n2cc(COC(=O)[C@@]3(C)C=C(C(=O)OC(C)(C)C)C(=O)CC3)nn2)cc1` gave a pERK/ERK ratio of 0.0813 (HeLa; quantitative western blot; concentration not given, 20 (unit not given), added: EGF).
`O=C(N1CCCC1)n1cc(-c2ccc(-c3ccccc3)cc2)nn1` gave an SILAC ratio of 1.13 (mouse T-cells; N-terminal labelling enrichment, measured: TFG N-terminal peptides; 1 nM, 6 h, protein median; reference: DMSO).
For `O=C(Nc1ccc(Cl)c(C(F)(F)F)c1)C1(C(=O)Nc2ccc3c(/C=C/c4ccccn4)n[nH]c3c2)CC1`, the GI50 was over 10000 nM (Ba/F3 TEL-VEGFR3; cell growth, CCK-8).
For `COC(=O)c1cc(NC2=NC(=O)C(=Cc3ccc(N(C)C)cc3)S2)ccc1OC(C)=O`, the metabolite level was -0.1 fold change (MCF7; GC-MS, measured: Guanosine; 1 µM; reference: DMSO).
The sphingomyelin level of `O=C(CCCCCOc1ccc2ccccc2c1)N[C@@H](CO)C[C@@H](O)c1ccc(-c2ccccc2)cc1` is reported as 4200 pmol/sample and 4280 pmol/sample and 4020 pmol/sample (HeLa; CERT activity, HPLC-MS/MS lipidomics, measured: sphingomyelin 20; 1 µM, 24 h, not cell-number normalised).
`CCn1nc(Cl)c2c1-c1cnc(N)c(c1)O[C@H](C)c1cc(F)ccc1-c1nn(C)cc1C2` gave an Emax of 100% (Ba/F3 EML4-ALK variant 1 S1206F; cell viability).
The cell-bound activity of `CCCC[C@H]1C(=O)N(C)[C@@H](CCCC)C(=O)N[C@@H](CCCCNC(=S)Nc2ccc(CN3CCN(CC(=O)O)CCN(CC(=O)O)CC3)cc2)C(=O)N[C@H](C(=O)NCC(N)=O)CSCC(=O)N[C@@H](Cc2ccc(O)cc2)C(=O)N(C)[C@@H](C)C(=O)N[C@@H](CC(N)=O)C(=O)N2CCC[C@H]2C(=O)N[C@@H](Cc2c[nH]cn2)C(=O)N[C@@H](CCC(=O)O)C(=O)N2C[C@H](O)C[C@H]2C(=O)N[C@@H](Cc2c[nH]c3ccccc23)C(=O)N[C@@H](CO)C(=O)N[C@@H](Cc2cn(CC(=O)O)c3ccccc23)C(=O)N1C` [fluorine-18 labelled] is reported as 1.12 ± 0.09% (H2444; binding; concentration not given, 30 min, 4 °C; reference: added activity).
`CC(C)Cc1ccc(C(C)C(=O)N[C@@H](CCCCNC(=O)CCOCCOCCOCCOCCOCCOCCNC(=O)CN2CCN(CC(=O)[O-])CCN(CC(=O)[O-])CCN(CC(=O)[O-])CC2)C(=O)Nc2cccc3c(C(=O)NCC(=O)N4CC(F)(F)C[C@H]4C#N)ccnc23)cc1.[177Lu+3]` (stereo partly drawn) gave a cell uptake of 12.74 ± 0.07% (U-87 MG; 4 h; reference: added dose).
`CCC(=CCc1c(O)cc2c(c1O)C(=O)CC(c1ccc(O)cc1)O2)CC` (stereo not drawn) gave an inhibition of 91.5% (HeLa; cell growth or viability, MTT; 50 µM, 48 h).
